Results from different studies.
Parts stem from different laboratories: compare values within a part only. “And” joins repeats or separate records; there may be more than shown.
Chain of UniProt P00742 (whole entry, looked up): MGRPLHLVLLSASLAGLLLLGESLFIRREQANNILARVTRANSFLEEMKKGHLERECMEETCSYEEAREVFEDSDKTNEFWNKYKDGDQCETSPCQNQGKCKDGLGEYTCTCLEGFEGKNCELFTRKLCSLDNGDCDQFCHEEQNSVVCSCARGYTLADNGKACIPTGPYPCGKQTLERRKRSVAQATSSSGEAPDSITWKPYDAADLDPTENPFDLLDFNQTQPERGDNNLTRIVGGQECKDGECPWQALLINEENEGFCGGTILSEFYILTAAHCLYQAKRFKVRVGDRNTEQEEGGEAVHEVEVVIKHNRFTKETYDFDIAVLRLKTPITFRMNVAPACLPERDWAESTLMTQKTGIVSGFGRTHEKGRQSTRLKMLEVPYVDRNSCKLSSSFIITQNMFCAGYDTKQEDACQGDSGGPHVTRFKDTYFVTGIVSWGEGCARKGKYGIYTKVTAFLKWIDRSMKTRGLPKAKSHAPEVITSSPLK
Chain of UniProt Q9Y337 (whole entry, looked up): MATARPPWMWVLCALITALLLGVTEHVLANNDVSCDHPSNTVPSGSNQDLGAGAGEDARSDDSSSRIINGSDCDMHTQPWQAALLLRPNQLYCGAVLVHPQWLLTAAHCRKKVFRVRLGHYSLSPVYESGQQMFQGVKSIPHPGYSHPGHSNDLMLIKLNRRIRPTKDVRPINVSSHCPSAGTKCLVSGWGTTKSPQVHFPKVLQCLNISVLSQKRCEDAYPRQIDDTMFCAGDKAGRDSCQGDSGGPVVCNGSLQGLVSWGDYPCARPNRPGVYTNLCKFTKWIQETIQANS
Chain of UniProt P00747 (whole entry, looked up): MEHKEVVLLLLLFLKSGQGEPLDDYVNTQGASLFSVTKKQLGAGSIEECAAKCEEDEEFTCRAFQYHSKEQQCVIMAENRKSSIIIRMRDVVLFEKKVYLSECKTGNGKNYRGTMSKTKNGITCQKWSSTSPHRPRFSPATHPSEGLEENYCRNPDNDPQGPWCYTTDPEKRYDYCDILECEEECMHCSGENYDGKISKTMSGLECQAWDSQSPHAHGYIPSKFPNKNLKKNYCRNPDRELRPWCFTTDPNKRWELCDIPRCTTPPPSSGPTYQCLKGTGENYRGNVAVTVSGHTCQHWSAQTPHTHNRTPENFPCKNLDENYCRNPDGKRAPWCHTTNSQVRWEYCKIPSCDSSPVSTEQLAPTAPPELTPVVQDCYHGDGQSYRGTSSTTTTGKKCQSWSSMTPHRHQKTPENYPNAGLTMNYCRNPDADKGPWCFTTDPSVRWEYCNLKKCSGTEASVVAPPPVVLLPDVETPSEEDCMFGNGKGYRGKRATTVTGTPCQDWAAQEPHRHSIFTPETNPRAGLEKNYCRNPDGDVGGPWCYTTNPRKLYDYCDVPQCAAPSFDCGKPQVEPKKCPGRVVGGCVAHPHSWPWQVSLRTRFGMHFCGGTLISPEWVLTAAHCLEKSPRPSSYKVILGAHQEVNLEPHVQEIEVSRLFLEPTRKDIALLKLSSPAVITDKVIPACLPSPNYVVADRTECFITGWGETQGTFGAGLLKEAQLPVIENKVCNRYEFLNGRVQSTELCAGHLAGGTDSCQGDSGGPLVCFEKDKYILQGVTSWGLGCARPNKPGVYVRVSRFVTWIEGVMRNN
Chain of UniProt Q9UKR0 (whole entry, looked up): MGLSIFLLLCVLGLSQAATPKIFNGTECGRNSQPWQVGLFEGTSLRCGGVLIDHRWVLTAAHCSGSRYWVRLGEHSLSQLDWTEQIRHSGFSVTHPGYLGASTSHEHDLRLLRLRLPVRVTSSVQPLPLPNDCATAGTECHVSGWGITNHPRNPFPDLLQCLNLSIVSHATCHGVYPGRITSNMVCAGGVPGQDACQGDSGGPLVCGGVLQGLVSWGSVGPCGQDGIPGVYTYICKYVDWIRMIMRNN
Chain of UniProt Q8IU80 (whole entry, looked up): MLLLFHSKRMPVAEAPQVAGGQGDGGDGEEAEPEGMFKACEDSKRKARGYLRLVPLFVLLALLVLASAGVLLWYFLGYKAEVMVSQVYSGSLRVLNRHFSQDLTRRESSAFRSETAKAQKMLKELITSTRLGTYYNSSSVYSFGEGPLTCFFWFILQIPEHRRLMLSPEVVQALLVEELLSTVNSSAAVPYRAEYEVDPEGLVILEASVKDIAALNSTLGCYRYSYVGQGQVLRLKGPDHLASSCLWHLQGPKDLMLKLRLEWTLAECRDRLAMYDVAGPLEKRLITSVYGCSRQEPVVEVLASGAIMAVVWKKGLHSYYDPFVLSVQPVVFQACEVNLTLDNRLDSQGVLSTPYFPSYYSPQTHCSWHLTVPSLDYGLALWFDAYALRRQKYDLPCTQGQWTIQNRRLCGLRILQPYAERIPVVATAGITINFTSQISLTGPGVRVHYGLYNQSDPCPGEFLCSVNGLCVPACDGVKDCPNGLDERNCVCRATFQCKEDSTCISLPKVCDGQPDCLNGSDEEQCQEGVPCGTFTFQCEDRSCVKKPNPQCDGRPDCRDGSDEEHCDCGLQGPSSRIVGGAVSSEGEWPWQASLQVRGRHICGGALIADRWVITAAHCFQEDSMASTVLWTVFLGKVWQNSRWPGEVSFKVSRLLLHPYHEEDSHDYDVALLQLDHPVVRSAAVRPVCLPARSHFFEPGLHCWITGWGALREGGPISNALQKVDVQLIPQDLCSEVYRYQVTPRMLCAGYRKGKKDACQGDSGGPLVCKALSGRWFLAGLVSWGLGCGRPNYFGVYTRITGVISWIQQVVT
Chain of UniProt P20231 (whole entry, looked up): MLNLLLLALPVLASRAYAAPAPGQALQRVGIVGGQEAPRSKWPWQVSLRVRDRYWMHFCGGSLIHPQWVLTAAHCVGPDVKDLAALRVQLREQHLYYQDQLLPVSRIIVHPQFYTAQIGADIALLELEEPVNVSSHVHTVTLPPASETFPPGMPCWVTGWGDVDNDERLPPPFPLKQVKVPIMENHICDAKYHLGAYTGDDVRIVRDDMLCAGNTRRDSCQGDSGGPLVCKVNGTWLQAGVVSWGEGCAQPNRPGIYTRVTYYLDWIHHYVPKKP

Set 1 — matrix: plasma; measurement: AUC(0-t)
Compound: O=C1CCC(N2Cc3c(ccc4c3OCC43CCN(Cc4ccccc4)CC3)C2=O)C(=O)N1 (centres unmarked)
mouse, ICR, male; intravenous, 1.0 mg/kg: 0.405 µg·h/mL
male CD-1 mouse; intravenous, 1 mg/kg: 0.408 µg·h/mL
male CD-1 mouse; oral, 3 mg/kg: 1.32 µg·h/mL
male ICR mice; intravenous, 1.0 mg/kg: 0.393 µg·h/mL and 0.428 µg·h/mL
male Sprague Dawley rats; intravenous, 1.0 mg/kg: 0.776 µg·h/mL
male Sprague-Dawley rat; oral, 3 mg/kg: 1.11 µg·h/mL
male Sprague Dawley rats; oral, 3.0 mg/kg: 0.997 µg·h/mL
male Sprague-Dawley rat; intravenous, 1 mg/kg: 0.753 µg·h/mL

Set 2 — cell line: HEK-293T-ACE2-TMPRSS2; technique: cell count; concentration: concentration not given; measurement: viability
CSc1cccc(NC(=O)C(=O)c2cccn2Cc2ccc(C)c(C)c2)c1: 66%
Cc1cc(C(=O)N2CCC3(CCCN(CCCc4ccccc4)C3=O)C2)n[nH]1 (centres unmarked): 110%
COc1ccc(C(=O)N2CCCC2)c(OC2CCN(C3Cc4ccccc4C3)CC2)c1: 110%
Cc1cc(NC(=O)C2CCN(c3ncnc4onc(C)c34)CC2)no1: 70%
Cc1oc2ncnc(N3CCC(C(=O)NC4CCCCCCC4)CC3)c2c1C: 68%
O=C(NCC1(c2ccccc2)CCCC1)C(=O)Nc1cccc(Br)c1: 70%
O=C(CCC(=O)N1CCN(c2nc3cccnc3s2)CC1)N1CCN(C(=O)c2ccco2)CC1: 116%
COc1cccc2c1C(=O)c1c(O)c3c(c(O)c1C2=O)C[C@@](O)(C(=O)CO)C[C@@H]3O[C@H]1C[C@H](N)C(O)[C@H](C)O1 (some centres unmarked): 69%
Cc1ccc(Nc2cc(C)nc(N3CCN(C(=O)c4ccco4)CC3)n2)cc1: 108%
Cc1ccsc1C(=O)N1CCN2C(=O)CNC(=O)C2C1 (centres unmarked): 106%
Cc1nc2ccccn2c1CC(=O)NCc1nc(-c2ccccc2)no1: 68%
CN(C)c1ccc(/C=C/c2ccc3ccccc3[n+]2C)cc1: 66%
CC(=O)N1CCCSc2ccc(S(=O)(=O)N3CCC(CN4CCc5ccccc5C4)CC3)cc21: 76%
CCc1cn[nH]c1C1CCCN(C(=O)c2cc3cc(Cl)cc(OC)c3o2)C1 (centres unmarked): 69%
O=C(NC1CC(=O)N(CCCc2ccccc2)C1)c1ccncc1 (centres unmarked): 110%
Cc1sc2nc(CN3CCC(C)CC3)nc(-n3ccnc3)c2c1C: 68%
O=C(NCCc1csc(-c2ccccc2)n1)[C@H]1CCCN1S(=O)(=O)c1cccc2nsnc12: 65%
Cc1ccc2[nH]c(CCc3cccc(NC(=O)C4CCCN(S(=O)(=O)N5CCCC5)C4)c3)nc2c1 (centres unmarked): 75%
CC(Oc1ccc(-n2cnc(-c3ccccc3)c2)cc1)C(N)=O (centres unmarked): 68%
Cc1ccc(C(=O)N(CCCN)[C@@H](c2oc3cc(Cl)ccc3c(=O)c2Cc2ccccc2)C(C)C)cc1: 93%
O=C(O)c1cc2ccc(O)cc2oc1=O: 101%
CCn1cc(CNC(=O)c2ccc3oc(-c4ccc(C(F)(F)F)cc4)nc3c2)cn1: 78%
Cc1nc(-c2cccc(Cl)c2)n(CC(=O)NCc2cccs2)c(=O)c1CCO: 84%
Cc1cc(C)n(CC(C)NCC(=O)NC(C)C)n1 (centres unmarked): 92%
CC(=O)N1c2ccc(S(=O)(=O)N3CCN(CCOc4ccc(Cl)cc4)CC3)cc2CC1C (centres unmarked): 65%

Set 3 — SMILES: CCOC(=O)c1ccc(OC(=O)CCCCCNC(=N)N)cc1; measurement: IC50
Kallikrein-5 (Homo sapiens, UniProt Q9Y337): 7.67 µM
Tryptase beta-2 (TPSB2, Homo sapiens, UniProt P20231): 0.00459 µM
Kallikrein-12 (Homo sapiens, UniProt Q9UKR0): 0.0453 µM
Plasminogen (PLG, Homo sapiens, UniProt P00747): 0.228 µM
Transmembrane protease serine 6 (Homo sapiens, UniProt Q8IU80): 3.99 µM
Coagulation factor X (F10, Homo sapiens, UniProt P00742): 2.07 µM
Urokinase-type plasminogen activator (PLAU, Homo sapiens, UniProt P00749): 0.0355 µM

Set 4 — measurement: body weight
Structure (SMILES): CC(=O)N[C@@H](Cc1c[nH]c2ccccc12)C(=O)N[C@@H](CCC(=O)C=[N+]=[N-])C(=O)OC(C)C
C57BL/6 CES1-/- mouse, both sexes; 1 mg/kg, day 10: 100% and 105% and 97% and 90.9% and 96.6%
C57BL/6 CES1-/- mouse, EL4 tumour; intravenous, 1 mg/kg DON equivalent, treatment day 18, 5 days per week; reference: baseline: 90% and 100% and 110% and 89% and 96% and 92%
C57BL/6 CES1-/- mouse, EL4 tumour; intravenous, 1 mg/kg DON equivalent, treatment day 7, 5 days per week; reference: baseline: 100%
C57BL/6 CES1-/- mouse, both sexes; 1 mg/kg, day 18: 84.8% and 86.2% and 104% and 87.9% and 105% and 100%
C57BL/6 CES1-/- mouse, EL4 tumour; intravenous, 1 mg/kg DON equivalent, treatment day 11, 5 days per week; reference: baseline: 91% and 88% and 93% and 100% and 90% and 105%

Set 5 — organism: Sarcocystis neurona; observed: parasite activity; concentration: concentration not given; measurement: activity class
CNC(=O)Oc1ccc2c(c1)[C@]1(C)CCN(C)[C@@H]1N2C.CNC(=O)Oc1ccc2c(c1)[C@]1(C)CCN(C)[C@@H]1N2C.O=S(=O)(O)O: inactive
COc1cc(N)c(Cl)cc1C(=O)NC1CN2CCC1CC2.Cl (centres unmarked): inactive
COC(=O)N1CCN(C(=O)Cc2ccc(Cl)c(Cl)c2)C(CN2CCCC2)C1.O=C(O)/C=C/C(=O)O (centres unmarked): inactive
C=C(C)CN1CC[C@]23c4c5ccc(O)c4O[C@H]2c2[nH]c4ccccc4c2C[C@@]3(O)C1C5.Cl.O: inactive
C[C@]12CC[C@H]3[C@@H](CCC4=CC(=O)CC[C@@H]43)[C@@H]1CC[C@@H]2O: inactive
Cl.OC1CCCCC1N1CCC(c2ccccc2)CC1 (racemic): inactive
CN1CC[C@@H](c2ccc(F)cc2)[C@H](COc2ccc3c(c2)OCO3)C1: inactive

Set 6 — organism: Leishmania donovani; strain: DD8 resistant line; measurement: inhibition
SMILES: CCCCCCCCCCCCCCCCOP(=O)([O-])OCC[N+](C)(C)C
THP-1 intracellular amastigotes; 40 µM, resistance confirmation: 100%
promastigotes; 16.66 µM, after drug pressure removed: 2% and 1%
THP-1 intracellular amastigotes; 20 µM, resistance confirmation: 91% and 92%

Further values, each from its own experiment
CC(C)n1cnc(-c2ccc(F)cc2)c1-c1ncc(C(=O)Nc2ccc(N3CCN(C)CC3)cc2)[nH]1  patients with TEAEs (phase 2a clinical trial, measured: influenza-like illness; idiopathic pulmonary fibrosis patients; dose not given, grade 2, all drug arms; reference: patients): 1%

For quick reference, copied from above (set 5):
COc1cc(N)c(Cl)cc1C(=O)NC1CN2CCC1CC2.Cl (centres unmarked): inactive
COC(=O)N1CCN(C(=O)Cc2ccc(Cl)c(Cl)c2)C(CN2CCCC2)C1.O=C(O)/C=C/C(=O)O (centres unmarked): inactive
C=C(C)CN1CC[C@]23c4c5ccc(O)c4O[C@H]2c2[nH]c4ccccc4c2C[C@@]3(O)C1C5.Cl.O: inactive
C[C@]12CC[C@H]3[C@@H](CCC4=CC(=O)CC[C@@H]43)[C@@H]1CC[C@@H]2O: inactive
